# Measured values of several laboratories.
# Every numbered part comes from another study and shows a few of its results, in no order. Values joined by “and” are separate records of one study, mostly repeats; a detail may differ.
# UniProt P06213, sequence (whole entry, looked up): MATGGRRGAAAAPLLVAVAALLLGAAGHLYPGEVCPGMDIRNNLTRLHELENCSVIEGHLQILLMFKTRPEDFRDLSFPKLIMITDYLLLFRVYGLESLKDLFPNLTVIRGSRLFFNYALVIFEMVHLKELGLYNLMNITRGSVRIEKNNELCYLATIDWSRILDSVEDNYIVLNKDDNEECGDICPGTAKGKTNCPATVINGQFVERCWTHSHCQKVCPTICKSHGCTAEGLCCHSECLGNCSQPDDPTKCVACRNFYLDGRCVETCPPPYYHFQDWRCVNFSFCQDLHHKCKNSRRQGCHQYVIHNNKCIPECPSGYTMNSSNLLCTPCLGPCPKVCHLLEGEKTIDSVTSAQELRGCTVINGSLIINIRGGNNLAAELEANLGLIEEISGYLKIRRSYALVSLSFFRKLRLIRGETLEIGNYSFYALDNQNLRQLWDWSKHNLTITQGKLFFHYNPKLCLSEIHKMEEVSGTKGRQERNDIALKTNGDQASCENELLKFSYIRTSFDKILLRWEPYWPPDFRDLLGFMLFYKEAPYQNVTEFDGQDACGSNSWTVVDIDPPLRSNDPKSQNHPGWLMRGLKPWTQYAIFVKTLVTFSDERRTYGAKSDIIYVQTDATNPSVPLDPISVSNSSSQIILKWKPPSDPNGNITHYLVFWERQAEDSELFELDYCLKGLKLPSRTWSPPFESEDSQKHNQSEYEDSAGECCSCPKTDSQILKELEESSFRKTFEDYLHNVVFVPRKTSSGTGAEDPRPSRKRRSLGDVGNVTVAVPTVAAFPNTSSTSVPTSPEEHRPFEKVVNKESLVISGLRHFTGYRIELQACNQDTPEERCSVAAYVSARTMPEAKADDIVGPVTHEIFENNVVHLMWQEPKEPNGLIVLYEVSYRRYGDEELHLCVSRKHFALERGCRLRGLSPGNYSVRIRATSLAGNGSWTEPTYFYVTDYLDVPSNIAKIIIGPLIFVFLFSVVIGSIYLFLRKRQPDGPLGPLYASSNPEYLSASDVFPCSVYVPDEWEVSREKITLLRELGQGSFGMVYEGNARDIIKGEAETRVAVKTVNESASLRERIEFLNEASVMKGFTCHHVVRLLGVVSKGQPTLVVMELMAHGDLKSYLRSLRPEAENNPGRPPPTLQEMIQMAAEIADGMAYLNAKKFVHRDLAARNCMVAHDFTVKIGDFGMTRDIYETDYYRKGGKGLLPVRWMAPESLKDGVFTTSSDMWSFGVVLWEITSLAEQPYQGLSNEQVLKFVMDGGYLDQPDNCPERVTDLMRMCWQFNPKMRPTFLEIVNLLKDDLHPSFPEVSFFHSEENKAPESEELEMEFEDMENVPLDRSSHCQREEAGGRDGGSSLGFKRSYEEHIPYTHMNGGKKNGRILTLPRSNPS
# UniProt P51957, sequence (whole entry, looked up): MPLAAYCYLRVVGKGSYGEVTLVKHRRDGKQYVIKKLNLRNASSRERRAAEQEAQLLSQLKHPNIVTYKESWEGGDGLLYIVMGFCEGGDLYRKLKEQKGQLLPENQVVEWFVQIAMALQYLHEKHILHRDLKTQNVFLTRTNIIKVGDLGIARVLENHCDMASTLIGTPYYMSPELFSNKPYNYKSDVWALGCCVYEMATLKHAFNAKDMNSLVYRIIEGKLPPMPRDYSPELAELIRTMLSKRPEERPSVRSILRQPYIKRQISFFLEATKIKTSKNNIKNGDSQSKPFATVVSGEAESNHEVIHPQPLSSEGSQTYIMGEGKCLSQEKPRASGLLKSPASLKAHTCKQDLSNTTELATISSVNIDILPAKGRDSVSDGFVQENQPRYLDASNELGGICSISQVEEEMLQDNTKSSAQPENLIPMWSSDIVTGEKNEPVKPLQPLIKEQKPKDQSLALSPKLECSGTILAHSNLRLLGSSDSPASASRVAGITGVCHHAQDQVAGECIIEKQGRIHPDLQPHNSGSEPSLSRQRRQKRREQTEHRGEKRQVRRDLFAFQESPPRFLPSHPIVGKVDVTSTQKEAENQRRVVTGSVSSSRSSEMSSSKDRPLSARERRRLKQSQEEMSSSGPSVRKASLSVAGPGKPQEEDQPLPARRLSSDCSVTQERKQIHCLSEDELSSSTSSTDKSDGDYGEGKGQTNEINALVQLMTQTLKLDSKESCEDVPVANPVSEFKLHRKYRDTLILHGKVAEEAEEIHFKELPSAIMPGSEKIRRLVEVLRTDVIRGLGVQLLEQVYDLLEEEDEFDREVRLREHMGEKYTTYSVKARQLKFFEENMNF
# UniProt P54646, sequence (whole entry, looked up): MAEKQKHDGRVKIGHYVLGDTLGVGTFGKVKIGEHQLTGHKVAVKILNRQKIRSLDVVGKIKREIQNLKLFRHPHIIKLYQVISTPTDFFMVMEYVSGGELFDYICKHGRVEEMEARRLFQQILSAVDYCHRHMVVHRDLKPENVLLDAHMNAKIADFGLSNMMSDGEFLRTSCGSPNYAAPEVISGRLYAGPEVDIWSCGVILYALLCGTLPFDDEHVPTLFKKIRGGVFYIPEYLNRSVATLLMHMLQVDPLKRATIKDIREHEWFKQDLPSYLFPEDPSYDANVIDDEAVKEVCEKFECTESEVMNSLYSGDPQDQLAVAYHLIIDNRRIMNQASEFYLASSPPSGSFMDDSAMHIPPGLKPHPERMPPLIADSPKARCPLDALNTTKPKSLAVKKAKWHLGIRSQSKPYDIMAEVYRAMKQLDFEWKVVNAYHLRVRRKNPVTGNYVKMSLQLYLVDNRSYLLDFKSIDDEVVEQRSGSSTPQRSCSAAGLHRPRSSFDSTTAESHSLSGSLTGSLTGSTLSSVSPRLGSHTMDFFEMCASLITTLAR

# Sample 1 — cell line: U-87 MG; concentration: concentration not given; reference: DMSO
# Compound: CCN1/C(=C/C=C2\CCCC(/C=C/C3=[N+](CC)c4ccccc4C3(C)C)=C2NCCCCCCCCN2CCC(Nc3nc4ccccc4n3Cc3ccc(F)cc3)CC2)C(C)(C)c2ccccc21
test,log2 fold change
item: APOBEC3C mRNA,-1.03
item: ST8SIA1 mRNA,-1.93
item: MRAS mRNA,1.19
item: TNFAIP8L3 mRNA,-0.831
item: ACAT2 mRNA,-1.01
item: RUNX2 mRNA,-1.34
item: ICOSLG mRNA,2.2
item: SLC45A4 mRNA,1.21
item: AFTPH mRNA,1.12
item: HIVEP2 mRNA,1.89
item: TMEM74 mRNA,-1.06

# Sample 2 — observed: thermal unfolding; technique: differential scanning fluorimetry; concentration: 5.5 µM; reading: higher = more unfolded
# Structure (SMILES): C[C@@H]1CN(c2ccc(-c3cc(C(=O)NCCOCCOCCOCCOCCNC(=O)/C=C/c4[nH]cc(C(=O)N[C@@H](CC(N)=O)c5ccc(F)c(Cl)c5)c4-c4ccc(Cl)cc4F)ccc3F)cc2NC(=O)c2c[nH]c(=O)cc2C(F)(F)F)C[C@H](C)N1C
# DCAF1: DDB1- and CUL4-associated factor 1 (DCAF1, Homo sapiens, UniProt Q9Y4B6)
# UniProt Q9Y4B6, sequence (whole entry, looked up): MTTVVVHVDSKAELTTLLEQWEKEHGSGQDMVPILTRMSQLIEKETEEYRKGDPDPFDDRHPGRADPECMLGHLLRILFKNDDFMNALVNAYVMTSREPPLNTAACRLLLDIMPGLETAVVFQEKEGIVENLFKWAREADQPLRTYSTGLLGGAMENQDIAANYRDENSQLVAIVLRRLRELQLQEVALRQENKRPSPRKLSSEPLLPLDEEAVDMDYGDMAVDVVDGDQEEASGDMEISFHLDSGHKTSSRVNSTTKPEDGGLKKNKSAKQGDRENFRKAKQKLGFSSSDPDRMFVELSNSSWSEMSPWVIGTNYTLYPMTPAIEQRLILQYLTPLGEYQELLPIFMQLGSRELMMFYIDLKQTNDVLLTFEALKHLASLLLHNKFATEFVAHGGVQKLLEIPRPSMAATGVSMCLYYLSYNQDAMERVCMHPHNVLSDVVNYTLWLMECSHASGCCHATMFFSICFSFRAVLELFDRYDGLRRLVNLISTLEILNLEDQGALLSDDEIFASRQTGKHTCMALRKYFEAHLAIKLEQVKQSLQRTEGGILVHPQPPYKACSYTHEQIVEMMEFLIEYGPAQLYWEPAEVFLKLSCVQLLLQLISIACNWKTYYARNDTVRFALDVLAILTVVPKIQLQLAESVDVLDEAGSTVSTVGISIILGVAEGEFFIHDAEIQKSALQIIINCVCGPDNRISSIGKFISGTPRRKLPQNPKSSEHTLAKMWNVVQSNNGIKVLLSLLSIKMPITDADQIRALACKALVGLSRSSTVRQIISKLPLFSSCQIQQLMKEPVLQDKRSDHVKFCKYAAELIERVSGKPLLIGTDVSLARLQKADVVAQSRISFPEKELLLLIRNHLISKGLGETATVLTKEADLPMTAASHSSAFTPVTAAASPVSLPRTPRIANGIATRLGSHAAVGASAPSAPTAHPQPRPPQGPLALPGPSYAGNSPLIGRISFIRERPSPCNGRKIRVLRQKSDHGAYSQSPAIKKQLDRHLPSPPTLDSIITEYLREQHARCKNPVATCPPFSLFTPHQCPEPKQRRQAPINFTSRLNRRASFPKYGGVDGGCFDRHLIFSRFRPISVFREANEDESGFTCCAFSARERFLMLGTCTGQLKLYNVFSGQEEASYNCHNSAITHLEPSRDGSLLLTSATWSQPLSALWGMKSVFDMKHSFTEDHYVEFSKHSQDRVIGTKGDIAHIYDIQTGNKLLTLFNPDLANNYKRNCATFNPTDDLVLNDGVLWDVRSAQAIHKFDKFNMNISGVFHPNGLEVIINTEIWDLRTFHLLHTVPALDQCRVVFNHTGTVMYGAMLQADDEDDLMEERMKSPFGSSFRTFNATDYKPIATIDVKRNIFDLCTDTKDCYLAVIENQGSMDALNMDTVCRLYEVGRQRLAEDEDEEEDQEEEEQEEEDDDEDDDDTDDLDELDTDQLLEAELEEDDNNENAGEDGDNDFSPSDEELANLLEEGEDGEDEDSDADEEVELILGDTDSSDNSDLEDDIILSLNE
# WDR5: WD repeat-containing protein 5 (WDR5, Homo sapiens, UniProt P61964)
target,setting,SYPRO Orange fluorescence
DCAF1,34.2 °C,9970 a.u.
WDR5,65.21 °C,14000 a.u.
DCAF1,60.81 °C,44600 a.u.
WDR5,30.6 °C,12800 a.u.
DCAF1,32.6 °C,9760 a.u.
DCAF1,60.01 °C,40700 a.u.
WDR5,32.2 °C,12700 a.u.
DCAF1,69.61 °C,56300 a.u.

# Sample 3 — technique: NanoBRET; concentration: 1 µM
# Structure (SMILES): COc1cc(-c2nc3ccc(C(=O)NCCCN(C)C)cc3n2C2CCC2)cc(OC)c1OC
target,target occupancy [%]
"CDK14 (Homo sapiens, UniProt O94921)",-3.07
"ULK2 (Homo sapiens, UniProt Q8IYT8)",2.22
"CAMK2D (Homo sapiens, UniProt Q13557)",2.05
"CLK1 (Homo sapiens, UniProt P49759)",3.15
"MARK4 (Homo sapiens, UniProt Q96L34)",-5.16
"STK33 (Homo sapiens, UniProt Q9BYT3)",1.24
"Insulin receptor (INSR, Homo sapiens, UniProt P06213)",-2.56
"PLK2 (Homo sapiens, UniProt Q9NYY3)",-9.57
"PRKAA2 (Homo sapiens, UniProt P54646)",1.09
"NEK4 (Homo sapiens, UniProt P51957)",2.57
"JAK3 (Homo sapiens, UniProt P52333)",1.11
"IRAK4 (Homo sapiens, UniProt Q9NWZ3)",-0.29
"TYRO3 (Homo sapiens, UniProt Q06418)",3.84

# Single results of other studies
# PKMYT1: Membrane-associated tyrosine- and threonine-specific cdc2-inhibitory kinase (PKMYT1, Homo sapiens, UniProt Q99640)
# UniProt Q99640, sequence (whole entry, looked up): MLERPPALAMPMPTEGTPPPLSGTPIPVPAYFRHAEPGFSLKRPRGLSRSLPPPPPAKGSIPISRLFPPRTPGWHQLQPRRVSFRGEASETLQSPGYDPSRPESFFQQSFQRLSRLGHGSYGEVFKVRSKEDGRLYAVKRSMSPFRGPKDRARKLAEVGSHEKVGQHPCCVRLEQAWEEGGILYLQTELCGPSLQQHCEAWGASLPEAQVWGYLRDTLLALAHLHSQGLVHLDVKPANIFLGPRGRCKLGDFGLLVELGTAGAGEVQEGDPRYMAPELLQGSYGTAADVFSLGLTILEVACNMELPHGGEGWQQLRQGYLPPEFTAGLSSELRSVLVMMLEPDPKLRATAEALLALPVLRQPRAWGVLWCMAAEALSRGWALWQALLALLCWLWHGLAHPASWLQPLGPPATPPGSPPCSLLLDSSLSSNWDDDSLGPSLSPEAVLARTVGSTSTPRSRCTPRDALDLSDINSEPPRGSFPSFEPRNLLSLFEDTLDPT
SMILES,target or system,test,test system,setting,quantity,result
"Cc1ccc(O)c(C)c1-c1cnc2[nH]c(-c3cnc(N4CCC5(CC4)CC(N4CCN(c6ccc(N[C@H]7CCC(=O)NC7=O)cc6F)CC4)CO5)nc3)cc2c1C#N (single isomer, unassigned)",PKMYT1,"degrader, Jess immunoblot",HCC1569,24 h,Dmax,87%
Cc1ccc(O)c(C)c1-c1cnc2[nH]c(-c3cnc(N4CCC(CCN5CCN(c6ccc(N7CCC(=O)NC7=O)cc6F)CC5)CC4)nc3)cc2c1C#N,PKMYT1,"binding, HTRF",,111.11 nM,inhibition,99.4% and 99.1%
Cc1ccc(O)c(C)c1-c1cnc2[nH]c(-c3cnc(N4CCC(CN5CCN(c6cc7c(cc6F)n(C6CCC(=O)NC6=O)c(=O)n7C)CC5)CC4)nc3)cc2c1C#N (stereo not drawn),,,CD-1 mouse,"intravenous, dose not given, 6 h",plasma concentration,not detected
Cc1ccc(O)c(C)c1-c1cnc2[nH]c(-c3cnc(N4CCC(CN5CCN(c6c(F)cc(NC7CCC(=O)NC7=O)cc6F)CC5)CC4)nc3)cc2c1C#N (racemic),PKMYT1,"binding, HTRF",,,IC50,14.4 nM

# Repeated from above (sample 3):
target,target occupancy [%]
"STK33 (Homo sapiens, UniProt Q9BYT3)",1.24
"Insulin receptor (INSR, Homo sapiens, UniProt P06213)",-2.56
